# Measurements collected from several papers.
# Each numbered part is a random draw from the data of one study; scales do not carry over between parts.

# Set 1
# Target: RING finger protein unkempt homolog, zinc fingers 1-6, GST-SBP tag (UNK, Homo sapiens, UniProt Q9C0B0, residues 30-357)
# Sequence of UniProt Q9C0B0 (30-357, looked up): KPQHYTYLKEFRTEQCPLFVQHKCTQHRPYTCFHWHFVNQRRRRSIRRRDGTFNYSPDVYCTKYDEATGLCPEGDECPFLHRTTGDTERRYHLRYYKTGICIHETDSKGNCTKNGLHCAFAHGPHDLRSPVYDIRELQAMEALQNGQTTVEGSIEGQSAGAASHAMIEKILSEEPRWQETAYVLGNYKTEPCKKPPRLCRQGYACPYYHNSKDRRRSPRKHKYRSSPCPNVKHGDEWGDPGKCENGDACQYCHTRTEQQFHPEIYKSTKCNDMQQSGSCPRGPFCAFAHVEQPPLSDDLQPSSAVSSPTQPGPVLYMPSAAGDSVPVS
# Method: RNA Bind-n-Seq
# Molecule type: RNA
# Medium: in vitro
# Concentration: not given
# Setting: RNA with constant flanks, human-mouse chimeric sites, ends assumed
# Reference: input RNA pool
# Reading: higher = stronger binding
Strand,bound/input enrichment [ratio]
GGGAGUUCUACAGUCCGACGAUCUUGCUACUAACUCCAUGGGUCAAGUUCCUGUGGGAAUCAUACAGGCAGUGUUUGGACCUUCUUCGAAACAAUUCUAGAGUAGAGCGCCUUUACCAUGAUAUCGCCCAGCAAGCUUUCAAACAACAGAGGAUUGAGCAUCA,0.214
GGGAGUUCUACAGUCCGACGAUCCAGGGCACAGCACCUACCCCCUCCUCCUUUCCACACCUGCAAACUCUUUUACUUGGGCUGCAUAGUUAGUGUAAUUACAUCUCAGCUUUGAGGGCUCCUGUGGCAAAUUCCCGGAUUAAACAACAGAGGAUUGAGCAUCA,1.47
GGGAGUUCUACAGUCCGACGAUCGUGCCCUUCUCGCUGCUGCGGAGCCCGAGCUGGGAACACCCCUUCCGCUGGUACCCUGCACACAGCCGCCUCUUCGAUCAAGCUUUCGGGCUGCCCCGGUUGCCCGAUGAGUGGUCGCAGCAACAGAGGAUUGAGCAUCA,0.155
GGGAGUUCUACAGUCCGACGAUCGAAUCCUACUCAGGCGGAUUUUGCAACCUGAAUGCAACAGCAGCAGCUCCAUAGUCACAGUAGGGUAGUUUUGGGGCUCUGUGGCCAGGGUUUUAUUCACAUGCAGGUUUGGAAAAUGUACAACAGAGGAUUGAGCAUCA,0.713
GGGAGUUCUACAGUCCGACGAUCACAGUUAUAUUGUUGAGUUUCAUUUUCAUAUAUUCUUGUAGUGUCUGCUUGCCUGUGACUUCUGGUAAAAUAAGACUAGCCUUUGAAAAUAUUUUAGCAUGGUAUUUUUCUAAAAAUAAACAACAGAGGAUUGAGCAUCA,7.78
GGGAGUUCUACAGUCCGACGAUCUAAGUCCUGUGCCAGCACUUCGCUCAUAAAGUUUUAAAUUCUGGACCAAUUGUGUUUGUUUCCUGAUUUUUGUAUUCAAUACUUUGCCUAGUAUGUAACUCACUCUUACUGAUAAUAAAACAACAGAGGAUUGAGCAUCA,0.717
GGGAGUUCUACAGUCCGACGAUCAAAGCCCUUGAAGAAAAAAAAAACUCGAACAGAUUUGACAAGGGUAGCCAGCUUGGAGUCUAGCAACUUGCCAAUGUUGCUUACCAACUGGGGGCUUGUUUUUCUUUUCUUCUUUCAAAUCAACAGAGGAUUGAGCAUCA,0.285
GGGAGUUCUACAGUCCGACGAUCCGCUGGCCCAAGCUGAUGGACUCUGAUGGCCUCCAUCUCUCAGGCACGUGUGCCUUCUCUUAGUCCCUGUUUUCGGGAUGUUAUGAACAGUAUCAUGGUGGUUUGAAAGCAGUUAUGUUGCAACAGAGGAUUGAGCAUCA,0.214

# Set 2
# Target: Phosphate system positive regulatory protein PHO4, full length, GST-tagged (PHO4, Saccharomyces cerevisiae, UniProt P07270, residues 1-312)
# Method: competition protein-binding microarray
# Molecule type: double-stranded DNA, one strand shown
# Medium: in vitro
# Concentration: 2 µM
# Setting: whole 60-bp probe, lowest competitor level
# Added: Cbf1 competitor, 0.05 µM
# Reading: higher = stronger binding
# Target sequence (chain): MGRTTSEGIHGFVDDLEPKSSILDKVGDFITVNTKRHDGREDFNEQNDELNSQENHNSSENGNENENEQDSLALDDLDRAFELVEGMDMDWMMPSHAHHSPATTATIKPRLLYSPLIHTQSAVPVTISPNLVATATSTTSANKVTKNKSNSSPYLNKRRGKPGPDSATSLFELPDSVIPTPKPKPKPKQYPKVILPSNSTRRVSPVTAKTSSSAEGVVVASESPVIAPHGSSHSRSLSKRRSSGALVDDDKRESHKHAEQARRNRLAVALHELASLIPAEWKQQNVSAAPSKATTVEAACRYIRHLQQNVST
Strand,fluorescence intensity [a.u.]
CCGGTAACCTACCGTCACGGCCAGATTTTTTCCAAGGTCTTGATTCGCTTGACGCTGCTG,3150
TTCTGCATCCAATATCACCTGACGTTCATCTTTATGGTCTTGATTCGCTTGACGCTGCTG,4040
CTAAATCCGCTTCTGCTCGTGGTGAGTACTTGCGCGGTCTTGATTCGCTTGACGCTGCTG,9880
CAACGATATCTTTATCAGGTGATTCTTACGCGCCAGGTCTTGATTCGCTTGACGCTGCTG,3210
CGTCCTAGTGATTGTCACTACACTTCCATGAGGAAGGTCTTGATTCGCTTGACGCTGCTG,3980
TCATCGTCAGAACATCTCGTGACTCGAGCACTCGTCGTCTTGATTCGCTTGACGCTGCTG,6850
AAATTACTAAGTTGTCACCCTACTTACCCCGTATGAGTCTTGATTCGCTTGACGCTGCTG,3620
AACCCGCTAACGAGTCACGTGGTGGTCAAGTAAGCAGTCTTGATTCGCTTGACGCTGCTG,14100

# Set 3
# Target: Ras GTPase-activating protein-binding protein 1, full length (G3BP1, Homo sapiens, UniProt Q13283)
# Sequence of UniProt Q13283 (whole entry, looked up): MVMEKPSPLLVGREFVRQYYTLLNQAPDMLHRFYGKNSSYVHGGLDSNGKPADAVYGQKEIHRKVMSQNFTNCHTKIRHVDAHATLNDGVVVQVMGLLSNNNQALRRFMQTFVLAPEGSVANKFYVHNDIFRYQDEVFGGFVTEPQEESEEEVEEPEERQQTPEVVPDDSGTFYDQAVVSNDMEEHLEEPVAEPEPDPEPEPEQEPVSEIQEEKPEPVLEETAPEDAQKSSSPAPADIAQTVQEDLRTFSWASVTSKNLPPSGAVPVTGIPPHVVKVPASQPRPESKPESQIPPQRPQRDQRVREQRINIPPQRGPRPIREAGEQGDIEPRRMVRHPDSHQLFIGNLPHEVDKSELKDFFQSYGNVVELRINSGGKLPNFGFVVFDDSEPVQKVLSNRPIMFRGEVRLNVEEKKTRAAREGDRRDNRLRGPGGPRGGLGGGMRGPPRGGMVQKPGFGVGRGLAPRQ
# Method: RNA Bind-n-Seq
# Molecule type: RNA
# Medium: in vitro
# Concentration: 200 nM
# Setting: whole 134-nt RNA, ends assumed
# Added: 150 mM KCl
# Reference: input library
# Reading: higher = stronger binding
Strand,log2 enrichment
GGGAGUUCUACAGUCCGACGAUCGCAGGAAGUAAAAACAAAUGGAAAUGCUUCGGAUAGUGGCAGGGGUGGGGGUUGCUAAGGAAAGGGUGGGAUGGGAGUGGUUAAAGAGUUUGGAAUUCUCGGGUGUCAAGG,0.693
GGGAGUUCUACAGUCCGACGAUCUGGCCCUGGUGGCAUGCGGGGAGGAAGAGGUGGCCUCAUGGAGCGUGGUGGUCCCGGUGGAAUGUUCAGAGGUGGCCGUGGUGGAGACAGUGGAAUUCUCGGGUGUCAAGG,0.527
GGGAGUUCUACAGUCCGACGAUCUGGGUGAAGAGGGACAGUUACCUUCCUGUGGGCAGUCAUAAUCUCAAGGCGGCCGCCAAGGCCAAGCUAGGCUAUGAUCCCGUGGAGCUAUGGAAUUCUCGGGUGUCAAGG,-1.27
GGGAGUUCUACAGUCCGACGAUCUCCUCAAGUCCUGUGCUACACAUCGUAUGUACCGAAUCGGUGGGUGGGUGGGAAAGUAUUAUGUUACGCCGUUCGGAUCUGCACUUCCAGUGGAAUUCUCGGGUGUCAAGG,1.35
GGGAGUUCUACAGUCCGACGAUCCAAGUCCUGUGCUACACAUCGUAUGUACCGAAUCGGUUUGGUUUGGAAAAAAAGGAAAGUAUUAUGUUACGCCGUUCGGAUCUGCACUUCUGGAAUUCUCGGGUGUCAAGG,-0.818
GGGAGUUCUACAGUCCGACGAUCAAGUCCUGUGCUACACAUCGUAUGUACCGAAUCGGCCCCGGGCCCCGGGCCCCGGGAAAGUAUUAUGUUACGCCGUUCGGAUCUGCACUUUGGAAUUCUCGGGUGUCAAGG,-1.2
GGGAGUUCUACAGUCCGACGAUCUGGCCCUGGUGGCAUGCGGGGAGGAAGAGGUGGCCUCAUGGAUCGUGGUGCUCCCGGUGGAAUGUUCAGAGGUGGCCGUGGUGGAGACAGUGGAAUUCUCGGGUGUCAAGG,1.27
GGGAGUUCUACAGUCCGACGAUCCAAGUCCUGUGCUACACAUCGUAUGUACCGAAUCGGAAAAAAAGGUGGAAAAAGGAAAGUAUUAUGUUACGCCGUUCGGAUCUGCACUUCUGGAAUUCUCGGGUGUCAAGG,-1.15

# Mixed results
Structure (SMILES),test system,conditions,endpoint,value
Nc1c(NC(=O)N2CCCC2)c(-c2ccc(Cl)cc2)nn1-c1cc(F)ccc1F,"human, microsomes or S9","2 µM, 0.5 h",remaining compound,83.6%

# Excerpt of the above (set 2):
Strand,fluorescence intensity [a.u.]
AAATTACTAAGTTGTCACCCTACTTACCCCGTATGAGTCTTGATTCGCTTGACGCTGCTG,3620
CAACGATATCTTTATCAGGTGATTCTTACGCGCCAGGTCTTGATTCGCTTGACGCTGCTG,3210
AACCCGCTAACGAGTCACGTGGTGGTCAAGTAAGCAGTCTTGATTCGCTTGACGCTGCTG,14100
TTCTGCATCCAATATCACCTGACGTTCATCTTTATGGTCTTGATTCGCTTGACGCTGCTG,4040
